# Results gathered from unrelated publications.
# Each numbered part is a random draw from the data of one study; scales do not carry over between parts.

# Sample 1
# Target: Interferon regulatory factor 5, full length, phosphomimetic (IRF5, Homo sapiens, UniProt Q13568-2, residues 1-514, K96S/S451D/S453D/S456D/S462D)
# Method: protein-binding microarray
# Form: double-stranded DNA, one strand shown
# Matrix: in vitro
# Tested at: 250 nM
# Setting: 60-bp whole probe
# With: salmon DNA 0.4 mg/ml
# Baseline: random background probes
# Direction: higher = stronger binding
# Shared flanks, not repeated: GCCTAGCAC … GTCTTGATTCGCTTGACGCTGCTG
Strand,log fluorescence
TGAGATATCGGGTATCGATTAGTGCTA,5.25 z-score
TTGGGACTGGGTCTCGGTTAGTGCTAG,-0.225 z-score
TTAGGTATCTACTATCGGTTAGTGCTA,7.84 z-score
GACGGACTGGGGACTGGGGATGTGCTA,-0.545 z-score
TGGAGCCTAAGGTTTAGGCTCGTGCTA,-0.176 z-score
TCATTTATATGCTATGTAACTGTGCTA,0.753 z-score

# Sample 2
# Target: Histone acetyltransferase KAT6A, winged helix 1, GST fusion (KAT6A, Homo sapiens, UniProt Q92794, residues 1-85)
# Method: protein binding microarray
# Form: double-stranded DNA, one strand shown
# Matrix: in vitro
# Tested at: not given
# Setting: 8-mer, flanks averaged, mean of 2 arrays, mostly near background
# Baseline: not given
# Direction: higher = stronger binding
# Residues (chain): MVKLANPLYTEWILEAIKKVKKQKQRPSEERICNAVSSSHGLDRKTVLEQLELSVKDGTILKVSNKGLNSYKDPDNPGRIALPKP
Strand,E-score
AGGCAACG,-0.0709
ACTCACTA,-0.157
GCAAAGAA,-0.107
ATGCATCA,-0.139
TTCTAAAA,-0.0851
GCGAGAAA,-0.0636
AATACCGC,0.341
GCTTTACC,0.13

# Sample 3
# Target: Sal-like protein 4, full length isoform A (SALL4, Homo sapiens, UniProt Q9UJQ4, residues 1-1053)
# UniProt Q9UJQ4, sequence (whole entry, looked up): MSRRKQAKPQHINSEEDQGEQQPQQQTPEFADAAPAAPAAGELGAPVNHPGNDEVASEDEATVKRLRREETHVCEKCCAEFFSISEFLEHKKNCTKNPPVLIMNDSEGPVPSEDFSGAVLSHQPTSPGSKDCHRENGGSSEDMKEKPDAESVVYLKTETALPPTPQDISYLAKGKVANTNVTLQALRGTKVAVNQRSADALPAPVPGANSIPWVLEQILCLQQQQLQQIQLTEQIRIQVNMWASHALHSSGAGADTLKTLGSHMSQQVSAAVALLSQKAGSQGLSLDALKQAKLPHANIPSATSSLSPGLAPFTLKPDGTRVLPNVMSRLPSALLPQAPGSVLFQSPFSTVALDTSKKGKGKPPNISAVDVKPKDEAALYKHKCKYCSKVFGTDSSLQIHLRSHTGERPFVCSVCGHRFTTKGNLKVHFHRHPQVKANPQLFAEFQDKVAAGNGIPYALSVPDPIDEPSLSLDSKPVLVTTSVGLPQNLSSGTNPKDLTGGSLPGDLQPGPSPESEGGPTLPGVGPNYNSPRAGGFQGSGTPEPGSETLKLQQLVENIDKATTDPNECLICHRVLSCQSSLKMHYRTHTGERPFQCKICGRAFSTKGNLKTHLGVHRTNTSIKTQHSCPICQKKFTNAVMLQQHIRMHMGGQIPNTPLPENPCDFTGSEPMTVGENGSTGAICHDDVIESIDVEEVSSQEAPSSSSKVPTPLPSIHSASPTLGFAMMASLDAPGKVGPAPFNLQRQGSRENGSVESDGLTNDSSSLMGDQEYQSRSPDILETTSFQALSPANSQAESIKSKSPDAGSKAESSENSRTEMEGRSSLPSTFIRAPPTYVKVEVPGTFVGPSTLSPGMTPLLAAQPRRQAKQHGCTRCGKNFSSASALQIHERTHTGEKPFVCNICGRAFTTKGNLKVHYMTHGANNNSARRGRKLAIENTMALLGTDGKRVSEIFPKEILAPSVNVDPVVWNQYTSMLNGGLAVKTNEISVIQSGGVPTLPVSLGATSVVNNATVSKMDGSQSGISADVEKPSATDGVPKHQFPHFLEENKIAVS
# Method: universal PBM
# Form: double-stranded DNA, one strand shown
# Matrix: in vitro
# Tested at: 600 nM
# Setting: 8-mer, flanks averaged, mean of replicates
# Direction: higher = stronger binding
Strand,E-score
GGAATGCA,0.0516
AAGAAAGT,0.126
AAAGCGGG,-0.111
CGGAGGTA,-0.241

# Single results of other studies
Molecule,target,assay,system,conditions,scale,endpoint,result
"PhoQ, residues 284 288 289 292 302 303 DDMDFR","PhoP, residues 12 14 15 18 19 YHFSH (Escherichia coli, UniProt P23836)","Sort-seq, measured: YFP reporter",E. coli,"PhoQ-PhoP variant library, with: 10 µM Mg2+","baseline: high Mg2+ state, higher = stronger signaling",fold induction,0.89

# Some of these lines once more (sample 2):
Strand,E-score
ACTCACTA,-0.157
GCAAAGAA,-0.107
ATGCATCA,-0.139
